Experimental data of several laboratories.
Every numbered part comes from another study and shows a few of its results, in no order. Positions count from the first letter of the parent shown.

Study 1 — method: RNAcompete; molecule type: RNA; sample: in vitro; concentration: 20 nM; setting: 7-mer, probes averaged, single round; baseline: mean of 7-mers; direction: higher = stronger binding
Target: PABPC1L2, full length, GST fusion (mouse, UniProt A0ABA7IW68)
Residues (chain): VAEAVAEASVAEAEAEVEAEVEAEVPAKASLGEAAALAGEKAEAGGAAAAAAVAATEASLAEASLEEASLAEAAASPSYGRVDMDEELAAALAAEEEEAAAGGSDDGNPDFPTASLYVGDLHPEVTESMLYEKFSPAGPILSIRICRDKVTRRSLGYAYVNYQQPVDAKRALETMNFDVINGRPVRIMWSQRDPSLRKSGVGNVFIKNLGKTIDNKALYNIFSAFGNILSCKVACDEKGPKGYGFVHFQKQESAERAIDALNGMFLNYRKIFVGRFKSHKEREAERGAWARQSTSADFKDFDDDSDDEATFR
Strand | 7-mer Z-score
AGAUACA | -0.0881
GUUUGGC | -0.345
GAUUUCA | -0.215
CACCCGG | -0.159
CUAUAUG | -0.18
AUAAGUA | 0.095
CAGGAUG | 0.122
UUGUAUU | -0.193

Study 2 — method: RNA Bind-n-Seq; molecule type: RNA; sample: in vitro; concentration: 100 nM; baseline: input RNA pool; direction: higher = stronger binding
Target: RING finger protein unkempt homolog, zinc fingers 1-6, SBP tag (UNK, Homo sapiens, UniProt Q9C0B0, residues 30-357)
Sequence of UniProt Q9C0B0 (30-357, looked up): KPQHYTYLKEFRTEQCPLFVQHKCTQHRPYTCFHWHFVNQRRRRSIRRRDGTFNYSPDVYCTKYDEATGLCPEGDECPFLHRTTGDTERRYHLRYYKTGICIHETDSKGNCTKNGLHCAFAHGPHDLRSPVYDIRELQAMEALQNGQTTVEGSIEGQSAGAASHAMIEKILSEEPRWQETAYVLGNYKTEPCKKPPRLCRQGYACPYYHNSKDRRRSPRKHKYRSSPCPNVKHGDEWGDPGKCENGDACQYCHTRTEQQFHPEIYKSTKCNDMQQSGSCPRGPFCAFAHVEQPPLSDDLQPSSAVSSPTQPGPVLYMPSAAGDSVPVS
Setting: RNA with constant flanks, vertebrate orthologous sites, ends assumed
Shared flanks, not repeated: GGGAGUUCUACAGUCCGACGAUC … CAACAGAGGAUUGAGCAUCA
Strand | bound/input enrichment
GUUGUGACCCAUUUAACAUACAUAAAAAACUAGCCAAAAAAAAUCUGCACGUGAUUGACUUAGAUGAUGCCACUUUUCUGAGUGCAAAAUUUGGAAGACAGCUUGUACCUGGUUGGAAAC | 1.67 ratio
GUAGUUUGUUUUUAAUUUCAAGCAAAAAAUCUUAUUGUACUUGAAUGUGUCCUGUUUUGUUAGCACACAUAGACUUGCUGUAACUGUACUCAUGUCCCAGUAUGUAUGUUCUUUCUAUGA | 0.905 ratio
CCCCGAUUUUAGAUGUGAUAUUUAGGCUUUCAUUCCAGUUUGUUUUUGUCUUUUCUUGUUUAGAUACCAAUCUUUUAAAUUCUUGCAUUUUAGUAAGAGAGCUACCUUUUUAUGGAUGUU | 2.1 ratio
AUCAUCUGACUGGAUGAAGACCGUCCCAAGUUACAACCAAACAAAUAGCUCCAUGGACUUUAGAAAUUACAUGAUGAGAGAUGAGAAUCUGGAACCACUGCCCAAAAACUGGGAAAUGGC | 0.484 ratio
GGGGCGGCCAAUGGGGGAAUUUCCUGCUUGGCCUUGUCUCCUCUCCCUGCCAUCUUCCCCUAGUUAUUUUUUUUUUUACCACCAUGUGAUUAAGGUCGGUGCCGCCUCCCCCGACCAACU | 5.47 ratio
UUGUAGUGUUUAUGACAACAGUUUUGAAAUUCUAUUUAUUUGCAUAUGUAAGUUUGUACAUAGUAAACCUCAGAUUGGUUUUGGUUUUUUUGGUUUUUUGAGGGACAAGUUUGACUUUUG | 0.631 ratio
UUACAAUCUUAAAUCGGUAUUUUCAAACAGUAGGAACUCUCUUUUUCUUUUUUUACAGUUCAGUGUAUCUGGUUUCUACAUGGAAGACUAAACUCAUGCUUCUUGCUAAUUGUGGUUUUU | 0.366 ratio
GUUGUGUUUUGUACAGGGCACCAUUCUCUGUACACGUUUGUGGUUAUAAAAUUAGUAAAACAGCUUACAUUUGUAUUUAUUUUCUAGUCCAUACUUCUGUACCCCCAUUUUUUUCUCCCU | 0.98 ratio

Study 3 — organism: Plasmodium berghei; cells: Huh-7; strain: liver stage; concentration: 10 µM; time: 24 h; baseline: control
SMILES | parasite load
C=C[C@H]1CN2CC[C@H]1C[C@H]2[C@H](OC(=O)OCC)c1ccnc2ccc(OC)cc12 | 109%
O=c1[nH]c2ccccc2n1CCCN1CCC(n2c(=O)[nH]c3cc(Cl)ccc32)CC1 | 61.4%
CN1CCc2cc3c(cc2C1O)OCO3 (centres unmarked) | 79%

Study 4 — target: CCND3, cyclin fold, Cln2 fusion (human); method: yeast growth competition, sequencing; sample: yeast; setting: weak parent motif; baseline: not given; direction: higher = stronger binding; starting sequence: viral docking peptide; TSVRRALFTGGSD
Substitution | normalised enrichment score
V3H | 0.205
S2R | 0.151
V3M | 0.232
V3F | 0.606
A6C | 0.18
T9V | -0.00796
R4W | 0.274
A6H | 0.313
S12A | 0.0742
L7I | -0.0465
A6L | 0.305
T9W | 0.469
A6P | -0.116
L7A | 0.159
R5Y | 0.0855
R5E | -0.11
F8K | 0.238
G10V | -0.386
G11I | -0.0408
T9I | -0.139
S2G | 0.2
L7C | 0.232
S2Y | -0.131
S12T | -0.166
F8E | -0.0232

Study 5 — observed: binding; method: phage display NGS; molecule type: peptide; setting: panning round 2; baseline: input library
Target: UDP-N-acetylglucosamine--peptide N-acetylglucosaminyltransferase 110 kDa subunit (OGT, Homo sapiens, UniProt O15294)
Sequence of UniProt O15294 (whole entry, looked up): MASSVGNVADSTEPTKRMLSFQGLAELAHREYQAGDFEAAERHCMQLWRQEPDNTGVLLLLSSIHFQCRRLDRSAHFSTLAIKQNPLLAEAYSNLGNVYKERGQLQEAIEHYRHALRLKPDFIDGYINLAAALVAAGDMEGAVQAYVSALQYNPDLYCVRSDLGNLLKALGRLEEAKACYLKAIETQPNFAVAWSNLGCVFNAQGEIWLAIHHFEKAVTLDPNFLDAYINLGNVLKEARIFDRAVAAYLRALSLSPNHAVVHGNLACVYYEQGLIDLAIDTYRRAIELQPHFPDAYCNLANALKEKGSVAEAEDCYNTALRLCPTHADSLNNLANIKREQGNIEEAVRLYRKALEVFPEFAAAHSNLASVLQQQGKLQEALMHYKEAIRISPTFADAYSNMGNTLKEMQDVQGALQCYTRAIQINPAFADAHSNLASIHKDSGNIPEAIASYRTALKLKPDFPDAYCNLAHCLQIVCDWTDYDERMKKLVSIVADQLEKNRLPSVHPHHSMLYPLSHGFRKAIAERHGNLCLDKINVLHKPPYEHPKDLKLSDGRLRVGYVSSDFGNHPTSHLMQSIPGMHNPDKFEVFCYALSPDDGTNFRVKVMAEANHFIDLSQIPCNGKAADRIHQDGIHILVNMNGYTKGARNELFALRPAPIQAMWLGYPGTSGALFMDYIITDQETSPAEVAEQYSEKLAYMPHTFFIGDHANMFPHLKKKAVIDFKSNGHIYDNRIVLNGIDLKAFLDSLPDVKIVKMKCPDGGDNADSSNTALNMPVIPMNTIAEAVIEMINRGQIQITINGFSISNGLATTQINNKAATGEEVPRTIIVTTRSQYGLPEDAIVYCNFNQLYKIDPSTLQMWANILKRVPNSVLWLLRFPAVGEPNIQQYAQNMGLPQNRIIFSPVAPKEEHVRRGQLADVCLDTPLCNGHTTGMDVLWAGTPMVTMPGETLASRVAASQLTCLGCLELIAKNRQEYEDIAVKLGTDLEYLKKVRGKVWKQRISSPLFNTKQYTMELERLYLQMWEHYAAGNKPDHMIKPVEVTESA
Molecule | minimum log2 enrichment ratio
GFMPVYEIYFTRSDE | 3.18
HMGMHQVLRIHQIHG | 2.56
WPVQPMYQIFGRYPE | 2.96

Study 6 — Substitution: I12H; method: DHFR PCA, deep sequencing; sample: yeast; baseline: wild-type fitted maximum; direction: higher = stronger binding
Target: ABI1, truncated, D143A, DHFR fusion (Arabidopsis thaliana)
Setting: methotrexate growth selection, single substitutions
Starting sequence: PYL1, truncated, DHFR fusion (Arabidopsis thaliana); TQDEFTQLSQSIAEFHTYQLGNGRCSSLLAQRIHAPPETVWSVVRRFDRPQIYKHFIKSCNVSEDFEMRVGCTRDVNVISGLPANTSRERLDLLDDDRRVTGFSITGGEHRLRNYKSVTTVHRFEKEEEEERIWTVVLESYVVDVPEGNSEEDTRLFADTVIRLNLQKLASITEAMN
setting | relative binding score [%]
together with: (+)-ABA 58 µM | 39.1
together with: (+)-ABA 200 µM | 68.5
together with: (+)-ABA 710 µM | 82.3
together with: (+)-ABA 17 µM | 9.08
together with: (+)-ABA 0.0091 µM | -3.99
together with: (+)-ABA 0.032 µM | 4.24

Repeated from above (study 4):
Substitution | normalised enrichment score
S12A | 0.0742
L7I | -0.0465
A6L | 0.305
T9W | 0.469
